Results collected from several papers.
Numbered parts are unrelated; each lists some results of a single study. Substitutions count along the parent as printed.

Block 1
Target: ABI1, truncated, D143A, DHFR fusion (Arabidopsis thaliana)
Technique: DHFR PCA, deep sequencing
Medium: yeast
Notes: methotrexate growth selection, single substitutions
With: (+)-ABA 0.032 µM
Baseline: wild-type fitted maximum
Direction: higher = stronger binding
Starting sequence: PYL1, truncated, DHFR fusion (Arabidopsis thaliana); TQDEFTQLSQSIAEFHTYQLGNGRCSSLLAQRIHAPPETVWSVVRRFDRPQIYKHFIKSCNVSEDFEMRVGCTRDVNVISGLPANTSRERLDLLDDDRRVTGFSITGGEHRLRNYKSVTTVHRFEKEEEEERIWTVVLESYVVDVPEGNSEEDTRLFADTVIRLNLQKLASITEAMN; partner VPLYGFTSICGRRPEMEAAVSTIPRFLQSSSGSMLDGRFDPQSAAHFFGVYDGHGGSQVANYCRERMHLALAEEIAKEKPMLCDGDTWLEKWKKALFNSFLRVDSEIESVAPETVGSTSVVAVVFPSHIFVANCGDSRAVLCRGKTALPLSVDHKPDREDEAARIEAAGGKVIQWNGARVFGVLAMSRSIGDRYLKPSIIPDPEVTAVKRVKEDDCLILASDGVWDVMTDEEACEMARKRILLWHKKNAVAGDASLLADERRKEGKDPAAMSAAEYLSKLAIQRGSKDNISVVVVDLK
| Substitution | relative binding score [%] |
| --- | --- |
| Q167D | 1.04 |
| G108C | 6.39 |
| E139Q | 20 |
| S26F | -7.96 |
| V121D | 3.64 |
| V70T | 0.884 |
| I12M | 6.28 |
| L29T | 0.674 |
| L166T | 0.202 |
| F47D | -0.477 |
| S42I | -6.25 |
| A30E | 0.273 |
| E89T | 0.161 |
| T1Y | 24.2 |

Block 2
Target: human cyclin B2
Read-out: peptide binding
Technique: yeast competitive growth sequencing
Form: peptide
Organism: Saccharomyces cerevisiae
Strain: cyclin B2-Cln2 fusion
Concentration: concentration not given
Notes: peptide tiling library
Direction: direction not given
| Molecule | binding enrichment score |
| --- | --- |
| KRCATPVIIDEILPSK | -0.258 |
| VLLKRLQDVVSERANH | 0.474 |
| ARKRLELGNLGNPQ | -0.222 |
| ESSQLTVQAEFDMSAI | -0.379 |
| FQDSGYNELKSCSFDN | 0.652 |
| VEEEFFALRKRTPSAG | 0.832 |
| SGYLTDENEVGFRG | 0.825 |
| PLRKAKRARLCSSSSS | 0.877 |
| AKRSLGFLPQPVPL | -0.033 |
| SCCKRKLVVGNGPEGP | -0.878 |
| CFRCLLFSFSGRSGVE | -0.804 |
| AEHPKPSACRNLFGPV | -0.106 |

Block 3
Target: Interferon regulatory factor 7, full length, phosphomimetic (IRF7, Homo sapiens, UniProt Q92985, residues 1-503, S101K/S471D/S472D/S475D/S476D/S477D/S483D/S484D/S487D)
Technique: protein-binding microarray
Form: double-stranded DNA, one strand shown
Medium: in vitro
Concentration: 250 nM
Notes: 60-bp whole probe
With: salmon DNA 0.4 mg/ml
Baseline: random background probes
Direction: higher = stronger binding
Constant ends, left off below: GCCTAGCAC … GTCTTGATTCGCTTGACGCTGCTG
Target sequence (chain): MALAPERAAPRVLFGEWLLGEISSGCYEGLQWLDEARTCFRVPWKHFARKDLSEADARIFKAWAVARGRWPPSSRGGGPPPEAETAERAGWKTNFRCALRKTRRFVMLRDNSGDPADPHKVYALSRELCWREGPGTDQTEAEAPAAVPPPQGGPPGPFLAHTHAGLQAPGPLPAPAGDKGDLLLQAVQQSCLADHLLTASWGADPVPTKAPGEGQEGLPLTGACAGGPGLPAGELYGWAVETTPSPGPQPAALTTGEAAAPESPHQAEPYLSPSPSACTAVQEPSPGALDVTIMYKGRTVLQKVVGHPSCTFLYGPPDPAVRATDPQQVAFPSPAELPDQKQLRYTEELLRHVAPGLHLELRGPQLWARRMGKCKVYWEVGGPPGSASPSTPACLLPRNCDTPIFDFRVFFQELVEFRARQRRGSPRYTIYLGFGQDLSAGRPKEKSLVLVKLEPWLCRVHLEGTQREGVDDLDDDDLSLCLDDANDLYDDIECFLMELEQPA
| Sequence | log fluorescence |
| --- | --- |
| GACGGACAGGACTTTCGGGACGTGCTA | -0.669 z-score |
| GACGGTTTCGGGTATCGGGGCGTGCTA | 6.87 z-score |
| AATCAACTTTTTTTAATTGAGTGCTAG | 0.0279 z-score |
| TTAGGTCTCCTTATCCTTTGGTGCTAG | 0.307 z-score |
| TTAGGTATCGGGACTGCGTTAGTGCTA | -0.256 z-score |
| AACGGTATCGACACTGGGGACGTGCTA | 0.144 z-score |
| GTATATACACTTATGACTTTGTGCTAG | 0.474 z-score |
| TCACCTAGCCATTATGAGACTGTGCTA | -0.114 z-score |
| TCAGAATTTACTTTCTAACTGTGCTAG | 0.403 z-score |
| TTAGGACTGGAATTTCGGTTAGTGCTA | 1.1 z-score |
| TTAGAACTGGTGACTGGATTAGTGCTA | -0.65 z-score |

Further values, each from its own experiment
| Molecule | target | test | test system | setting | scale | quantity | result |
| --- | --- | --- | --- | --- | --- | --- | --- |
| PhoQ, residues 284 288 289 292 302 303 TTSMTC | PhoP, residues 12 14 15 18 19 NFCKL (Escherichia coli, UniProt P23836) | Sort-seq, refers to: YFP reporter | E. coli | PhoQ-PhoP variant library, with: 10 µM Mg2+ | baseline: high Mg2+ state, higher = stronger signaling | fold induction | 14.4 |

Excerpt of the above (block 3):
| Sequence | log fluorescence |
| --- | --- |
| AATCAACTTTTTTTAATTGAGTGCTAG | 0.0279 z-score |
| GACGGTTTCGGGTATCGGGGCGTGCTA | 6.87 z-score |
| TTAGGTCTCCTTATCCTTTGGTGCTAG | 0.307 z-score |
| TTAGGTATCGGGACTGCGTTAGTGCTA | -0.256 z-score |
